# Measurements collected from several papers.
# Lines come from different studies, so protocols differ.
SMILES,cell line,assay,conditions,scale,endpoint,result
COc1cc(CNC(=O)C[C@H](C)CCC=C(C)C)ccc1OCc1cn(-c2ccc(C#N)cc2)nn1,HL-60(TB),SRB,"10 µM, 48 h",,growth,70.8%
CC/C=C\C/C=C\C/C=C\C/C=C\C/C=C\C/C=C\CCC(=O)Nc1ccn(C2OC(CO)C(O)C2(F)F)c(=O)n1 (stereo not shown),HL-60(TB),,,,CC50,> 100 µM
COc1cc(CNC(=O)C[C@H](C)CCC=C(C)C)ccc1OCc1cn(-c2cccc(Cl)c2)nn1,HL-60(TB),SRB,"10 µM, 48 h",,growth,83.9%
CC[C@H](C)[C@H](NC(=O)[C@H](C)NC(=O)CNC(=O)[C@H](CCCCN)NC(=O)[C@H](CC(N)=O)NC(=O)[C@H](CO)NC(=O)CN)C(=O)N[C@H](C(=O)NCC(=O)N[C@@H](CC(C)C)C(=O)N[C@@H](CCSC)C(=O)O)[C@@H](C)CC,rat primary cortical neurons,immunostaining,10 µM,reference: no compound,BrdU+/NeuN+ cells,~50%
COC1=C[C@@H]2[C@@H]3Cc4ccc(OC)c(OC(=O)[C@H](C)N)c4[C@]2(CCN3C)CC1=O,RAW264.7,"NO release, inhibitor, Griess",LPS-stimulated,,IC50,68.9 µM
CC(=O)OC[C@H]1O[C@@H](Sc2sc(C(=O)c3ccc(Br)cc3)c(N)c2-c2nc3ccccc3s2)[C@H](OC(C)=O)[C@@H](OC(C)=O)[C@H]1OC(C)=O,HL-60(TB),,"10 µM, 48 h",,growth,105%
COc1cc(CNC(=O)C[C@H](C)CCC=C(C)C)ccc1OCc1cn(-c2ccc(Br)cc2)nn1,HL-60(TB),SRB,"10 µM, 48 h",,growth,88.4%
C=CCc1cc2c(c(OC)c1OC)OCO2,T47D,"cell growth or viability, MTT",72 h,,GI50,80.5 µM
COc1cc(CNC(=O)C[C@H](C)CCC=C(C)C)ccc1OCc1cn(-c2ccccc2)nn1,HL-60(TB),SRB,"10 µM, 48 h",,growth,93%
COc1ccc(-n2cc(C(=O)N3C[C@]4(OC(=O)c5ccccc5NC(C)=O)CC[C@H](OC)[C@@]56[C@@H]4C[C@@H]([C@@H]35)[C@@]3(O)C[C@H](OC)[C@H]4C[C@@H]6[C@]3(O)[C@H]4OC)nn2)cc1,RAW264.7,"NO release, inhibitor, Griess","24 h, LPS-stimulated",,IC50,12.9 µM
CC(=O)OC[C@H]1O[C@@H](Sc2sc(C(=O)c3ccc(C)cc3)c(N)c2-c2nc3ccccc3s2)[C@H](OC(C)=O)[C@@H](OC(C)=O)[C@@H]1OC(C)=O,HL-60(TB),,"10 µM, 48 h",,growth,80%
COC[C@@H](NC(C)=O)C(=O)NCc1ccc(N=[N+]=[N-])cc1,CAD,whole-cell patch clamp,100 µM,,slow inactivation onset potential,> -80 mV
CC[C@H](C)[C@@H]1NC(=O)[C@H](CCCCN)NC(=O)[C@H](CCCCN)NC(=O)[C@H](C)NC(=O)[C@H](C(C)C)NC(=O)[C@H](C)NC(=O)[C@H](CC(C)C)NC(=O)[C@H](CC(C)C)NC(=O)[C@H](C)NC(=O)[C@H](CCCCN)NC(=O)[C@H](CC(C)C)NC(=O)[C@H](CC(N)=O)NC(=O)[C@H](CC(C)C)NC(=O)[C@@H](N)CSSC[C@@H](C(N)=O)NC(=O)[C@H](CC(C)C)NC1=O,HMEC-1,"cell growth or viability, MTT",24 h,,IC50,39.5 µM

# For quick reference, copied from above:
SMILES,cell line,assay,conditions,scale,endpoint,result
COC1=C[C@@H]2[C@@H]3Cc4ccc(OC)c(OC(=O)[C@H](C)N)c4[C@]2(CCN3C)CC1=O,RAW264.7,"NO release, inhibitor, Griess",LPS-stimulated,,IC50,68.9 µM
